Measured values of several laboratories.
± marks the error that the study gave.

Chains of the proteins cited; added tags and fusions are not shown. Residues count along the entry.
UniProt Q03311, whole entry, looked up: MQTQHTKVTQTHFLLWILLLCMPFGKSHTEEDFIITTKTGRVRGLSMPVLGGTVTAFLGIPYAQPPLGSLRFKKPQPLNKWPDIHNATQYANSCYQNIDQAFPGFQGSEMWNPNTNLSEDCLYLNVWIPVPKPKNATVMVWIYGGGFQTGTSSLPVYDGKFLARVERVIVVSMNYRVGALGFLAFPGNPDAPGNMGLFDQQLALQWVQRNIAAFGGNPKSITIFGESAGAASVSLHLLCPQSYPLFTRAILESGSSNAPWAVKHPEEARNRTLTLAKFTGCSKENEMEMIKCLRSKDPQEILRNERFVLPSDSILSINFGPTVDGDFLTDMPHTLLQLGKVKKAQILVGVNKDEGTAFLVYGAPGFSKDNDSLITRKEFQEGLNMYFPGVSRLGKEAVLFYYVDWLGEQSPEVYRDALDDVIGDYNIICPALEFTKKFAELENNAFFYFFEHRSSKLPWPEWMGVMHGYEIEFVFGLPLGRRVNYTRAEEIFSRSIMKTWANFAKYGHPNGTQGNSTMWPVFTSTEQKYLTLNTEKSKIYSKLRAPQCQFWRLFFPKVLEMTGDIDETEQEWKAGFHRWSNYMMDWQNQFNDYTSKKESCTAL
UniProt P23953, whole entry, looked up: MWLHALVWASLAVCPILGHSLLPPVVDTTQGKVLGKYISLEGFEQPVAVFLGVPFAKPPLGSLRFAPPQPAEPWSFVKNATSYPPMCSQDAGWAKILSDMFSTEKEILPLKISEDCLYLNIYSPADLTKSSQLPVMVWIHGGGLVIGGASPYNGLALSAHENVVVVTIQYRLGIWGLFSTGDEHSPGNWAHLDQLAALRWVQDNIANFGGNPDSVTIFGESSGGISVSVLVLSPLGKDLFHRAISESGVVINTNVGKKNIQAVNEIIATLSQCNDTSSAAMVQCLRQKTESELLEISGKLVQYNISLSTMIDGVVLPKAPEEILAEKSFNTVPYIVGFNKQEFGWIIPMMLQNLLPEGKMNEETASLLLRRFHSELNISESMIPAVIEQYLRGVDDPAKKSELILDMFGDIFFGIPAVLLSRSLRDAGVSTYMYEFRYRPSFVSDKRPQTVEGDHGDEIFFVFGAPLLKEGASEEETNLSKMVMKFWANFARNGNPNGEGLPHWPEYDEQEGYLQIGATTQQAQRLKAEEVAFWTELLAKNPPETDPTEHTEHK
UniProt P35372, whole entry: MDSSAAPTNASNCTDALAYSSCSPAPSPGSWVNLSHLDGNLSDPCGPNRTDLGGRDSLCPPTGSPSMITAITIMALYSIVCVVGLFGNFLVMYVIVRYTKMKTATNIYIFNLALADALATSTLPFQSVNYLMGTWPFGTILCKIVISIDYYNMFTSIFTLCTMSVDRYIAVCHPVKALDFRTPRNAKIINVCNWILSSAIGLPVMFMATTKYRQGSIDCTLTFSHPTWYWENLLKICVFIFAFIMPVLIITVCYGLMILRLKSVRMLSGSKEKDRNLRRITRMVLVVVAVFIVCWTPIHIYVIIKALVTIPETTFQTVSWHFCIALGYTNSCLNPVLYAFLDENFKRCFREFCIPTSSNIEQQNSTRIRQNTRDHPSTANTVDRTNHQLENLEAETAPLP
UniProt P21836, whole entry, looked up: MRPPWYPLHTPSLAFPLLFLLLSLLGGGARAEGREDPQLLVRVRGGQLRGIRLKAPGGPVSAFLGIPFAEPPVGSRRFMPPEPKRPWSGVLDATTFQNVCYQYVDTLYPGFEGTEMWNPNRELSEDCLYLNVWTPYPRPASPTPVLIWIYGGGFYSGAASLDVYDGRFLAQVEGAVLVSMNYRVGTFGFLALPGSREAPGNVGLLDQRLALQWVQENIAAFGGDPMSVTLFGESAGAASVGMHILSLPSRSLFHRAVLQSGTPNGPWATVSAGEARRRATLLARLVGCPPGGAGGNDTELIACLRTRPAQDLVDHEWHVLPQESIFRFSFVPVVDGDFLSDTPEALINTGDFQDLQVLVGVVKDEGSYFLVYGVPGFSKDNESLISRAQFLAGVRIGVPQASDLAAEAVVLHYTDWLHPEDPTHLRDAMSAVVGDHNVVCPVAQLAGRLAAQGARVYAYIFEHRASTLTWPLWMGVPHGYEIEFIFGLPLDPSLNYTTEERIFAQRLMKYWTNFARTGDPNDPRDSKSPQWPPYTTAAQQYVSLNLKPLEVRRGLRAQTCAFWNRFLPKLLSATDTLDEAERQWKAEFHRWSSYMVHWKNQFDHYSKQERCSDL
UniProt P41145, whole entry: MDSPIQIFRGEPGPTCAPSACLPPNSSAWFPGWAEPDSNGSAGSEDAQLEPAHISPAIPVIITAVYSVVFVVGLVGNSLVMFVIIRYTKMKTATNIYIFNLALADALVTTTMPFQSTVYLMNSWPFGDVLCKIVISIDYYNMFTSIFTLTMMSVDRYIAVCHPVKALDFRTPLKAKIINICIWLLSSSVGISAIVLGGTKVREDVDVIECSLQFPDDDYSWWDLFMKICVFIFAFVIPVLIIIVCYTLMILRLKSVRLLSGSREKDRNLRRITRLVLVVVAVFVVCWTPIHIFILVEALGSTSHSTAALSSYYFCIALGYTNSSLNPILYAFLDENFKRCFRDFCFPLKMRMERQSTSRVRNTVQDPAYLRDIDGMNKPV
UniProt Q3L245, 26-602 limits assumed: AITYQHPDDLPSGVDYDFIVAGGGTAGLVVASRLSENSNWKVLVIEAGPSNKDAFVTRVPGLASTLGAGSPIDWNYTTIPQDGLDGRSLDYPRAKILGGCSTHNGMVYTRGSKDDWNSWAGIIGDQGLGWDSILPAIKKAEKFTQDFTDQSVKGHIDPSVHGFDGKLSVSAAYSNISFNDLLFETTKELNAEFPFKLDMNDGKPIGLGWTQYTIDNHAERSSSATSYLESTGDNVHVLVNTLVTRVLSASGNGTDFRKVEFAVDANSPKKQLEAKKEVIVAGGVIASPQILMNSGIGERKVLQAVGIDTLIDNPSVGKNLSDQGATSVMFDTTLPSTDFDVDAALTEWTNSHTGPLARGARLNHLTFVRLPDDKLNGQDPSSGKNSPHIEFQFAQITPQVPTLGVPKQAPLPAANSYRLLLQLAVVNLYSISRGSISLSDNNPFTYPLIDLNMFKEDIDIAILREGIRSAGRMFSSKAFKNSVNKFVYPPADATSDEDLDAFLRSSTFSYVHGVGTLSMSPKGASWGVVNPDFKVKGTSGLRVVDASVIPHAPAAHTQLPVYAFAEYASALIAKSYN
UniProt Q9GZZ6, 25-450 limits assumed: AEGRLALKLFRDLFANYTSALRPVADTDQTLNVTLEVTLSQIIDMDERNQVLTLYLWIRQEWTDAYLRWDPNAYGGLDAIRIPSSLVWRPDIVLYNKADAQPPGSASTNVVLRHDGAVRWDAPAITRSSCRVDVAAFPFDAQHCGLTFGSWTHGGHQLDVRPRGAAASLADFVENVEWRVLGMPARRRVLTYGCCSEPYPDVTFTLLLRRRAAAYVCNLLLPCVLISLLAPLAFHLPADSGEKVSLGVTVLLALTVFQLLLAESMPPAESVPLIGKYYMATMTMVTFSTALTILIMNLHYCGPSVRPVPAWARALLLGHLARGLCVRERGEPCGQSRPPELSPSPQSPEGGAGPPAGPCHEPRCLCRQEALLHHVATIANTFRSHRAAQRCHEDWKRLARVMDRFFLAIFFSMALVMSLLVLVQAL
UniProt Q9UGM1, 26-479 limits assumed: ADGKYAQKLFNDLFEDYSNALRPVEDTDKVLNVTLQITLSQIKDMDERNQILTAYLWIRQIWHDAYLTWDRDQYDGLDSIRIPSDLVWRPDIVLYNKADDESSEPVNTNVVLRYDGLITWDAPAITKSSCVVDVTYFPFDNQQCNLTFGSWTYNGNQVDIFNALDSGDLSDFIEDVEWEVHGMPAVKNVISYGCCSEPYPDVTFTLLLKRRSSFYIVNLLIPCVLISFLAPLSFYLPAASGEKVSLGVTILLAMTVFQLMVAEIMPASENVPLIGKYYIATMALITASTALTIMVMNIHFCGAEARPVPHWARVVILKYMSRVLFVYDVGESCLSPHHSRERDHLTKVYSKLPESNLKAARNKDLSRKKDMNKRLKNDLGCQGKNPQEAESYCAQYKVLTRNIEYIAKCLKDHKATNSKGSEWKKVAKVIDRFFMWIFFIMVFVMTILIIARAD
UniProt P32300, whole entry: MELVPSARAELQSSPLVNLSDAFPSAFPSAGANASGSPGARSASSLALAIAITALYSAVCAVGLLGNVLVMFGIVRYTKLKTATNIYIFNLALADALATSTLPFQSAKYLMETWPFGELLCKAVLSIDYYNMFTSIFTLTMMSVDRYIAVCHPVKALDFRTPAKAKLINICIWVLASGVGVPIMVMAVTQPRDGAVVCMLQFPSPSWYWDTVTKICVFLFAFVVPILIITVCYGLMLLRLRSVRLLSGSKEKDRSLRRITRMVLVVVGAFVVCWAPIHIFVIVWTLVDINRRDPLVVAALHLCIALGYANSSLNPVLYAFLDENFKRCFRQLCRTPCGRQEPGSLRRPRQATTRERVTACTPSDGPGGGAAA
UniProt P04775, whole entry: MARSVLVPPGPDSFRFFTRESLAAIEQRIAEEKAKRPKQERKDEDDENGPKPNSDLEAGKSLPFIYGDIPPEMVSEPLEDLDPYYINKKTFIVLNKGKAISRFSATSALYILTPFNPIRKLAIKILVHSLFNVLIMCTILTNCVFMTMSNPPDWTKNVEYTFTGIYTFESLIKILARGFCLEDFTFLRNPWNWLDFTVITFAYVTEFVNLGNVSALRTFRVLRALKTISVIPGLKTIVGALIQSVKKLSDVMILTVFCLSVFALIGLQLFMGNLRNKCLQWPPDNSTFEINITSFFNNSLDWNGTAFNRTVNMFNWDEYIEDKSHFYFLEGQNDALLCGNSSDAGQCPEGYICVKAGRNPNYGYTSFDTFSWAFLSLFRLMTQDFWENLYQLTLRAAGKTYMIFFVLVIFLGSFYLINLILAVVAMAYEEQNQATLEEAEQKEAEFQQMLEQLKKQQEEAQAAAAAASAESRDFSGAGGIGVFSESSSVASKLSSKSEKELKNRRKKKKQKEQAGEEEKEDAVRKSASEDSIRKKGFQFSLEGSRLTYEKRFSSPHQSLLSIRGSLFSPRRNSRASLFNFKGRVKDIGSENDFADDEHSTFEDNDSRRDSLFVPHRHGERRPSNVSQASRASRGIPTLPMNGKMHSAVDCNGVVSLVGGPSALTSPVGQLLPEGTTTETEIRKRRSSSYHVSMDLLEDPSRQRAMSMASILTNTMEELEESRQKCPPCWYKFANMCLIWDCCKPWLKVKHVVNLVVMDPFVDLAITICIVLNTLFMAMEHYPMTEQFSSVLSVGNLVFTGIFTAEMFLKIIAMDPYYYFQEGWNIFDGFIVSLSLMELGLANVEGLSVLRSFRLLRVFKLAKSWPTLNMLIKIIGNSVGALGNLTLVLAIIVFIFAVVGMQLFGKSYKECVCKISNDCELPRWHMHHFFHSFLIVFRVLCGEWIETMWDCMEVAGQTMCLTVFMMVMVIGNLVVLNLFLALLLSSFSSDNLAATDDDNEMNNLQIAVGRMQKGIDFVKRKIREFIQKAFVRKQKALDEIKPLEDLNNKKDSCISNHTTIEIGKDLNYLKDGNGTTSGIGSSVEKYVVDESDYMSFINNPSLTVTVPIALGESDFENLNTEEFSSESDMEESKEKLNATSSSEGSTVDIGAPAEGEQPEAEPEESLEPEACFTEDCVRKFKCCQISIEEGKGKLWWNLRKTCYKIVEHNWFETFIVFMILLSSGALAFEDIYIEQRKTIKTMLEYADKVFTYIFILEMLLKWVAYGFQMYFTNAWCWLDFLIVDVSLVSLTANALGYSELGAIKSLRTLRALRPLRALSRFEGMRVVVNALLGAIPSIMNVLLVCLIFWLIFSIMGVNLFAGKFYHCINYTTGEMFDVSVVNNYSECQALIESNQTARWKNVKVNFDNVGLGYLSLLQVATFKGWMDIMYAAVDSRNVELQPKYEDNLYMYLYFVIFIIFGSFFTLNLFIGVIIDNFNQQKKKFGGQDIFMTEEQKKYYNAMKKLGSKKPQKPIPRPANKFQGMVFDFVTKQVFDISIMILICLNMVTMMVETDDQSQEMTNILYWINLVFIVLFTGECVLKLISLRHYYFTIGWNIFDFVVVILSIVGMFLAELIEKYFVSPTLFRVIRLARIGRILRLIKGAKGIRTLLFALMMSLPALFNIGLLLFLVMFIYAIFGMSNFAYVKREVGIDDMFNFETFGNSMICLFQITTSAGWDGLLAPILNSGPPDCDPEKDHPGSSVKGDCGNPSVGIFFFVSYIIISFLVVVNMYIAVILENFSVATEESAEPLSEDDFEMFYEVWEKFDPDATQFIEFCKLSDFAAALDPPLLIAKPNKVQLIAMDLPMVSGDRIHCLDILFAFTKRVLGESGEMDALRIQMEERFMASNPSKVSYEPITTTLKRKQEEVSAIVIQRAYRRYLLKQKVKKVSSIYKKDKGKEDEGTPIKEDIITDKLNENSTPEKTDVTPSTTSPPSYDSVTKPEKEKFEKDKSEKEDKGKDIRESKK

Molecule	tested on	assay	test system	setting	scale	quantity	result
AEOL 10150	–	multiplex immunoassay	rat, status epilepticus, hippocampus	sc, 7 mg/kg every 4 h, 24 h, from 5 min post-SE	–	TNF-α level	no effect
CCOP(=S)(OCC)Oc1ccc([N+](=O)[O-])cc1	Cholinesterase (Bche, Mus musculus, UniProt Q03311)	–	ES1-/- mice, plasma	subcutaneous, 12.5 mg/kg, 6.0 h, toxicant challenge	–	inhibition	76 ± 4.4%
COc1cc(CNC(=O)c2cnc3c(=O)[nH]c(N)nc3n2)cc(OC)c1OC	Ricin, A chain (Ricinus communis, UniProt P02879)	differential scanning fluorimetry	–	500 µM, pH 7.5, 2 µM protein	–	ΔTm	1 °C
COc1c(C)c2c(c(O)c1C/C=C(\C)CCC(=O)O)C(=O)OC2	Inosine-5'-monophosphate dehydrogenase (guaB, Bacillus anthracis, UniProt A0A6L8P2U9)	inhibitor	–	added: NAD+ varied, 750 µM IMP	–	Kii	3.9 ± 0.2 µM
O=C1c2c(O)c(=O)ccn2N([C@@H]2c3ccccc3SCc3c2ccc(F)c3F)[C@@H]2COCCN12	RNA-directed RNA polymerase L, endonuclease domain (Dabie bandavirus, UniProt I0DF35, T128S)	protein thermostability, thermal shift	–	200 µM, added: Mn2+ 2 mM	baseline: protein with Mn2+ only	thermal shift	10.5 °C
CCOP(=O)(OCC)Oc1ccc([N+](=O)[O-])cc1	Ces1c (Mus musculus, UniProt P23953)	alpha-naphthyl acetate hydrolysis	ES1+/+ mice, plasma	subcutaneous, 0.2 mg/kg, 0.5 h, toxicant challenge	–	inhibition	91%
Pillar[6]MaxQ	Voltage-gated inwardly rectifying potassium channel KCNH2 (KCNH2, Homo sapiens, UniProt Q12809)	hERG current, inhibitor, automated patch clamp	HEK293 expressing hERG	–	–	IC50	> 25 µM
CN(C)[C@]1(c2ccccc2)CC[C@]2(CC1)OCCc1c3cc(F)ccc3[nH]c12	Mu-type opioid receptor (OPRM1, Homo sapiens, UniProt P35372)	cAMP, agonist	–	human receptor	–	Emax	100.3 ± 0.3%
CCOP(=S)(OCC)Oc1cc(C)nc(C(C)C)n1	Acetylcholinesterase (Ache, Mus musculus, UniProt P21836)	enzyme activity	mice	subcutaneous, 50 mg/kg, toxicant challenge	baseline: baseline	time to AChE recovery	≤ 48 h
CO[C@]12CC[C@@]3(C[C@@H]1[C@](C)(O)c1cccs1)[C@H]1Cc4ccc(O)c5c4[C@@]3(CCN1CC1CC1)[C@H]2O5	Kappa-type opioid receptor (OPRK1, Homo sapiens, UniProt P41145)	G-protein activation, agonist	–	10 µM	baseline: U-69593	stimulation	30 ± 6%
N=C(N)NCCNC(=O)C1(Nc2ccccc2)CCN(Cc2ccccc2)CC1	Neuropeptide FF receptor 1 (NPFFR1, Homo sapiens, UniProt Q9GZQ6)	–	–	–	baseline: mu/delta/kappa opioid over NPFF1	selectivity ratio	≥ 18 fold
ferrocenium hexafluorophosphate	pdh1 (Macropsalliota meleagris, UniProt Q3L245)	electron acceptor	–	pH 8.5, 30 °C, added: 25 mM D-glucose	–	Km	160 ± 40 µM
C[C@@H]1NC(=O)[C@H](CCCNC(=N)N)NC(=O)[C@H](CCCNC(=N)N)NC(=O)[C@H](CCCNC(=N)N)NC(=O)[C@H](CO)NC(=O)[C@@H]2CSSC[C@H](NC(=O)CN)C(=O)N[C@@H](CSSC[C@@H](C(N)=O)NC(=O)[C@H](CO)NC(=O)[C@H](CCCNC(=N)N)NC1=O)C(=O)N[C@@H](CO)C(=O)N[C@@H](Cc1c[nH]cn1)C(=O)N1CCC[C@H]1C(=O)N[C@@H](C)C(=O)N2	Neuronal acetylcholine receptor; alpha9/alpha10 (Homo sapiens, UniProt Q9GZZ6+Q9UGM1)	ion current, antagonist	Xenopus oocytes	10 µM, 5 min, after washout, added: acetylcholine	baseline: control	recovery of response	0.5 ± 0.7%
O=CN1CC[C@]23c4c5ccc(O)c4O[C@H]2[C@@H](O)C=C[C@H]3[C@H]1C5	Delta-type opioid receptor (Oprd1, Mus musculus, UniProt P32300)	–	mouse vas deferens	concentration not given	–	activity	inactive
C[C@@H]1NC(=O)[C@H](CO)NC(=O)[C@H](CO)NC(=O)[C@@H]2CSSC[C@@H](C(N)=O)NC(=O)[C@@H]3CSSC[C@H](N)C(=O)N[C@@H](CSSC[C@H](NC(=O)[C@H](Cc4c[nH]c5ccccc45)NC1=O)C(=O)N[C@@H](CCCNC(=N)N)C(=O)N[C@@H](CC(=O)O)C(=O)N[C@@H](Cc1c[nH]cn1)C(=O)N[C@@H](CO)C(=O)N[C@@H](CCCNC(=N)N)C(=O)N3)C(=O)N[C@@H](CC(N)=O)C(=O)N2	Sodium channel protein type 2 subunit alpha (Scn2a, Rattus norvegicus, UniProt P04775)	channel-peptide complex formation	–	1 µM	–	kobs	0.17 ± 0.006 min⁻¹
N-carbamoyl-aspartate	Dihydroorotase (Bacillus anthracis, UniProt Q81WF0, N93A)	substrate	–	N93A mutant	–	kcat	1.4 ± 0.1 s⁻¹

For quick reference, copied from above:
Molecule	tested on	assay	test system	setting	scale	quantity	result
CCOP(=S)(OCC)Oc1cc(C)nc(C(C)C)n1	Acetylcholinesterase (Ache, Mus musculus, UniProt P21836)	enzyme activity	mice	subcutaneous, 50 mg/kg, toxicant challenge	baseline: baseline	time to AChE recovery	≤ 48 h
